Assay results gathered from unrelated publications.
Lines come from different studies, so protocols differ. “And” joins repeats or separate records; there may be more than shown. ± gives the spread as reported.
HTR1D: 5-hydroxytryptamine receptor 1D (HTR1D, Homo sapiens, UniProt P28221)
Chain of UniProt P28221 (whole entry, looked up): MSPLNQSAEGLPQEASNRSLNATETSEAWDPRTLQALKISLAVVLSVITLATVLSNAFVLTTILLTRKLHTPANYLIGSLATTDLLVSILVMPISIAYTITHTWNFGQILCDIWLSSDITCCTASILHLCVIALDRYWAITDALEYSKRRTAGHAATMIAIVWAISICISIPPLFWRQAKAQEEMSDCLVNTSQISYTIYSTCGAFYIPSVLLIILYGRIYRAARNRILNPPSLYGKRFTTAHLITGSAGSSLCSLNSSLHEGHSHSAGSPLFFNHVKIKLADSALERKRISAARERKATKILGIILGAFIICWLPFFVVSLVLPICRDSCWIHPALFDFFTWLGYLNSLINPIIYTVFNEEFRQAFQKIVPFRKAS
Kcnc1: Voltage-gated potassium channel KCNC1 (Kcnc1, Mus musculus, UniProt P15388)
Chain of UniProt P15388 (whole entry, looked up): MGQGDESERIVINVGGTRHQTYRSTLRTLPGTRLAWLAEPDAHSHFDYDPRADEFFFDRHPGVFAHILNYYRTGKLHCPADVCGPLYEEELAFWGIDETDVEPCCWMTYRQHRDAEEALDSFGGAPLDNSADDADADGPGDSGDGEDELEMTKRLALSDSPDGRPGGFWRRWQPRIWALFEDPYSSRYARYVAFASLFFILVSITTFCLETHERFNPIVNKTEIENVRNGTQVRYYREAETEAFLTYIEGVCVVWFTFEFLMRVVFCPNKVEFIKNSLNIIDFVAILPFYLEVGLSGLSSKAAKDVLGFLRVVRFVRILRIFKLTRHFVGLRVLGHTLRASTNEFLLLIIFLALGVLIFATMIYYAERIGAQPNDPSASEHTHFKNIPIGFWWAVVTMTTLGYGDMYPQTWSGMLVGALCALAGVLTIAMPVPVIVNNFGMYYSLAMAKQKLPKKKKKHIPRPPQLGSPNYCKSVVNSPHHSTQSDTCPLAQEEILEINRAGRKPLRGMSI
Cgas: Cyclic GMP-AMP synthase (Cgas, Mus musculus, UniProt Q8C6L5)
Chain of UniProt Q93009 (whole entry, unmodified, looked up): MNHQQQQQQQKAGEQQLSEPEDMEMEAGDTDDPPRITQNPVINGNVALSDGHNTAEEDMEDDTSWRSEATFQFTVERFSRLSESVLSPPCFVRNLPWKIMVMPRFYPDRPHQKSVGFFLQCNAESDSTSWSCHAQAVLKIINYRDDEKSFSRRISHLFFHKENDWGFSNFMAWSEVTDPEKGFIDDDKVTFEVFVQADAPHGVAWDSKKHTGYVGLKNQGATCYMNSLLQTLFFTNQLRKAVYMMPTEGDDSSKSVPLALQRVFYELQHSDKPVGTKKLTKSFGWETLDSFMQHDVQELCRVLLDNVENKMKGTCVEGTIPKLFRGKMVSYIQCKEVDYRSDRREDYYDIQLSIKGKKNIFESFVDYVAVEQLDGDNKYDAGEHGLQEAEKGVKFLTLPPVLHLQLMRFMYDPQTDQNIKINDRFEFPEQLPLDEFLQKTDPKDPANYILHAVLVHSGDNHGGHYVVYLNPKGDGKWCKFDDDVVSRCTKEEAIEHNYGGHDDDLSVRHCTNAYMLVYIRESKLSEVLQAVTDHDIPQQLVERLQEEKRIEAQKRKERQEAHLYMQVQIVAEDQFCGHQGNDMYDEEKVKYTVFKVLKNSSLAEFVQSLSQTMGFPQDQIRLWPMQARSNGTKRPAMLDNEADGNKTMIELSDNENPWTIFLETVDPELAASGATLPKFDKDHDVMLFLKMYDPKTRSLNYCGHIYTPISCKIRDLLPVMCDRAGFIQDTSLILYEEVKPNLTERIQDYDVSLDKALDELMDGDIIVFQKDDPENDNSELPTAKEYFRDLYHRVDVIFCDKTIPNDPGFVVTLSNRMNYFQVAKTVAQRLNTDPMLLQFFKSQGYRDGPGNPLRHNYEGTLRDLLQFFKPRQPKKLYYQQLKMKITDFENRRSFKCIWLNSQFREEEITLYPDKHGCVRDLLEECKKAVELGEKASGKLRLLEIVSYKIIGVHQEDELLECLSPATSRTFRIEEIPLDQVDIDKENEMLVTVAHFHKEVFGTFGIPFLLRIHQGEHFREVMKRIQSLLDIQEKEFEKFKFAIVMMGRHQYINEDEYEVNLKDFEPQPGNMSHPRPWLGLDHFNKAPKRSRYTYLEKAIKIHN
Chain of UniProt Q8C6L5 (whole entry, looked up): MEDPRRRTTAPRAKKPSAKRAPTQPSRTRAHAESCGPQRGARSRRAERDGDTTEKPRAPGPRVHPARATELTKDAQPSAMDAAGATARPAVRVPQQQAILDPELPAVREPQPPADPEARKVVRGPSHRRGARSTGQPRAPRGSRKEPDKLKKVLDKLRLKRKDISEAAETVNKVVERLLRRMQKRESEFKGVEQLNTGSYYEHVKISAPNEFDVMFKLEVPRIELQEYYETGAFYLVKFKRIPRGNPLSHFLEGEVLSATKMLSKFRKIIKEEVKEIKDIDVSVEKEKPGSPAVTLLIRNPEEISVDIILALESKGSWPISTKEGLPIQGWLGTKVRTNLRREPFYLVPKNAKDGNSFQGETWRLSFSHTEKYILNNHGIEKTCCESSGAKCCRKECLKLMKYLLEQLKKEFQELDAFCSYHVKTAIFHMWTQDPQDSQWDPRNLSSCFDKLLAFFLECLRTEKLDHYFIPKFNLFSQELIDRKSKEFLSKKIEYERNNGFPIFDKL
Chain of UniProt Q8IWT6 (whole entry, looked up): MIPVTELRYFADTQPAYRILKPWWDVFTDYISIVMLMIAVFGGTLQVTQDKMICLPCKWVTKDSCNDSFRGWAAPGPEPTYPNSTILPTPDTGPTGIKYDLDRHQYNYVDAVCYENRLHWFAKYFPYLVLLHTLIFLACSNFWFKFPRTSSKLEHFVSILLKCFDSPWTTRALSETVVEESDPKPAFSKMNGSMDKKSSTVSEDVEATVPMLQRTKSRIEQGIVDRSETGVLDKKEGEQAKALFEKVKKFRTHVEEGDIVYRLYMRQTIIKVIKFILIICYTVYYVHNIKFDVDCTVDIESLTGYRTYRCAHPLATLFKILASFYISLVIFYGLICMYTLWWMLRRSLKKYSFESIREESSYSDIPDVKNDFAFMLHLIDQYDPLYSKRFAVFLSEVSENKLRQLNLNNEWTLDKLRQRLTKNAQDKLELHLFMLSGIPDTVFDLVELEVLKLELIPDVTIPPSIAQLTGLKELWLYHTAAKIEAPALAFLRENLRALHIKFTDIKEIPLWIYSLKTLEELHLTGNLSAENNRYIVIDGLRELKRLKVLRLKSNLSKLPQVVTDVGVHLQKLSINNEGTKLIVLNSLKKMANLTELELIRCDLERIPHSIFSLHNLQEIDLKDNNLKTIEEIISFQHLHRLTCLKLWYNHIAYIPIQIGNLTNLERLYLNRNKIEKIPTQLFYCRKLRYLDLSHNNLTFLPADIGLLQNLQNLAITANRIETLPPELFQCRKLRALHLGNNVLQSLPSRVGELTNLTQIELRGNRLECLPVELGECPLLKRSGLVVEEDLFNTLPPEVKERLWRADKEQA
Chain of UniProt P17787 (whole entry, looked up): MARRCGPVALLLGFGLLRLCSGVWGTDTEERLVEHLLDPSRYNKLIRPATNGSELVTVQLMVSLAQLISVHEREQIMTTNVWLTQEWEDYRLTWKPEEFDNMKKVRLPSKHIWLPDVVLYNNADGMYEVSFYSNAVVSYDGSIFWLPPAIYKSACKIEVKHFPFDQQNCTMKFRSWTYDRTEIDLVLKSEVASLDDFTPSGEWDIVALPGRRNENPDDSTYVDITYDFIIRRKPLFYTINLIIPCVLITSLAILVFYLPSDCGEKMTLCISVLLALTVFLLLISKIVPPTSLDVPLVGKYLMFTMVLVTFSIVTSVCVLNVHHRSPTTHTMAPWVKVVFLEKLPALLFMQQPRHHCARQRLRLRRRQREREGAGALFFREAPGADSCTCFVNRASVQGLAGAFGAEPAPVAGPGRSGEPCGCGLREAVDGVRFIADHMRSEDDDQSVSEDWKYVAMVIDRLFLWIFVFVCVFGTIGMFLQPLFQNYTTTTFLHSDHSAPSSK
Chain of UniProt Q9Y5N1 (whole entry, looked up): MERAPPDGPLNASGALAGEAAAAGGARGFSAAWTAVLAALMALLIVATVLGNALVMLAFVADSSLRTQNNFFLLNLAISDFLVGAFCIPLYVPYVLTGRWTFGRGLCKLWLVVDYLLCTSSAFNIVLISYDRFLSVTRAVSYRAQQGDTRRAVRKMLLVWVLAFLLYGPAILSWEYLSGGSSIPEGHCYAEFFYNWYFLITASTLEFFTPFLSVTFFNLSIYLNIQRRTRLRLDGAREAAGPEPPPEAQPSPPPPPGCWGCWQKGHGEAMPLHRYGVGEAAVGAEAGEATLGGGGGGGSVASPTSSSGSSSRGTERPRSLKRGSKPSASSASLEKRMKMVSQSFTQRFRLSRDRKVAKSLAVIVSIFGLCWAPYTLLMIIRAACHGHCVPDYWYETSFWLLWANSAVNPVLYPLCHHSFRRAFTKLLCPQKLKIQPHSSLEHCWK
Chain of UniProt Q8N884 (whole entry, looked up): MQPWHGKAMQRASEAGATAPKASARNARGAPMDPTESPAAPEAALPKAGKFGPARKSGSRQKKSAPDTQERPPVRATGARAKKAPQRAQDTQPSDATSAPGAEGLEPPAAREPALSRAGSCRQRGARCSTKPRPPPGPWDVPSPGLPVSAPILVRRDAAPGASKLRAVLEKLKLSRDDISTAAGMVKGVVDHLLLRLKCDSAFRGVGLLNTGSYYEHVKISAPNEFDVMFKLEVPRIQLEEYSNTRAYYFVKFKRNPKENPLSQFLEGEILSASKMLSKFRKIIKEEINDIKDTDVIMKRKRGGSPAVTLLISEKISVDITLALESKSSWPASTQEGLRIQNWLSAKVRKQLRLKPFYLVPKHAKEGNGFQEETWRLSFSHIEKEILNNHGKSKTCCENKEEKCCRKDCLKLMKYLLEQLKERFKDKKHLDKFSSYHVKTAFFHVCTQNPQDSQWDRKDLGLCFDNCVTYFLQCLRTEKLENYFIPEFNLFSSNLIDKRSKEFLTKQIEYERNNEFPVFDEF

| Compound | target | assay | test system | setting | scale | inhibition |
| --- | --- | --- | --- | --- | --- | --- |
| O=C1c2ccccc2CCCN1CCCCN1CCN(c2ccccn2)CC1 | HTR1D | radioligand binding | – | concentration not given, with: [3H]5-CT | – | 77% |
| COc1cc(C(=O)NS(=O)(=O)c2ccccc2C)ccc1Cc1cn(C)c2ccc(NC(=O)OC3CCCC3)cc12 | Volume-regulated anion channel subunit LRRC8C, part LRRC8A IL1 chimera (LRRC8C, Homo sapiens, UniProt Q8TDW0, E6A) | ion current, inhibitor, whole-cell patch clamp | HCT LRRC8-/- cells | 10 µM, +100 mV | – | 94.1% and 87% and 92.8% and 95.6% and 92.9% and 95.3% |
| CC(C)c1noc2ncc(C(=O)c3ccccc3O)cc12 | Kcnc1 | ion current, whole-cell patch-clamp | – | 10 µM | – | 0.972% |
| Cc1nn(-c2nc3c(F)cc(F)cc3s2)c(O)c1C(c1ccc(C(F)(F)F)cc1)c1c(C)nn(-c2nc3c(F)cc(F)cc3s2)c1O | Cgas | enzyme activity, inhibitor, pyrophosphatase-coupled | – | 50 µM, 1.5 h, mouse enzyme | – | 99.5% |
| CC1=NN(c2ccccc2)C(=O)C1=NNc1ccc(S(N)(=O)=O)cc1 | bovine α-glucosidase | enzyme activity, inhibitor, glucose oxidase | – | 200 µg/mL, with: maltose | – | 40.1% |
| COc1cc(C2=CCCc3c2ccc(OC)c3OCc2cnc([N+](=O)[O-])n2C)cc(OC)c1OC | tubulin | colchicine binding | – | 5 µM, with: 5.0 µM [3H]colchicine | – | 9.6 ± 1% |
| CN(C(=O)n1cnc(-c2ccc[n+]([O-])c2)c1)C1CCCCC1 | HTR1D | receptor binding | – | 10 µM, subtype 5HT1D | – | 14.9% |
| CC1=NCCNC(=O)C1=NNc1ccc(S(N)(=O)=O)cc1 | bovine α-glucosidase | enzyme activity, inhibitor, glucose oxidase | – | 50 µg/mL, with: maltose | – | 40.8% |
| C[C@H]1[C@H](OC(=O)CCC(=O)O)O[C@@H]2O[C@@]3(C)CC[C@H]4[C@H](C)CC[C@@H]1[C@@]24OO3 | Non-structural polyprotein pORF1, helicase domain (Hepatitis E virus genotype 1, UniProt P33424) | ATPase activity, inhibitor, colorimetric | – | 9.7 µM, with: ATP 100 µM | – | 17.1% |
| Cc1ccnc(C)c1OC[C@H]1CN(CCN2CCc3ccccc32)CCO1 | HTR1D | radioligand binding | – | concentration not given, with: [3H]5-CT | – | 34.5% |
| COc1cc(-c2cc(C(C)=O)n3ccccc23)cc(OC)c1Cn1ccnc1 | CREBBP (Homo sapiens, UniProt Q92793) | – | – | 1 µM | – | 20.5% |
| Cc1c(-c2ccccc2)oc2c(C(=O)O)cccc2c1=O | LRRC8A (Homo sapiens, UniProt Q8IWT6) | endogenous hypotonicity-induced current | HEK293 | 30 µM | – | 46.5 ± 2% |
| COc1c(C#N)ccnc1N1C2CCC1CN(C(=O)c1cccnc1-n1cccn1)C2 | GABA | binding | – | 10 µM | – | -18.1% |
| O=C(C[C@@H](C(F)F)n1ccc(F)n1)N1CCC(O)(Cn2cnc3c(cnn3-c3ccc(F)cc3)c2=O)CC1 | USP7 (Homo sapiens, UniProt Q93009, V517F) | enzyme activity, inhibitor | – | 0.05 µM | – | 8.68% and 13.3% |
| Cc1nn(-c2nc3c(F)cc(F)cc3s2)c(O)c1C(c1cccc(C(F)(F)F)c1)c1c(C)nn(-c2nc3c(F)cc(F)cc3s2)c1O | Cyclic GMP-AMP synthase, catalytic domain; with DNA (CGAS, Homo sapiens, UniProt Q8N884) | cGAS phase separation, inhibitor | – | 0.781 µM | – | 21.7% |
| CC1=NOC(=O)C1=NNc1ccc(S(N)(=O)=O)cc1 | bovine α-glucosidase | enzyme activity, inhibitor, glucose oxidase | – | 10 µg/mL, with: maltose | – | 33.075 ± 0.0014% |
| COc1cc2c(cc1OC)C(=O)N(CCCCN1CCN(c3ccccc3OC)CC1)C2 | HTR1D | radioligand binding | – | concentration not given, with: [3H]5-CT | – | 87.6% |

| Compound | target | assay | test system | setting | scale | inhibition |
| --- | --- | --- | --- | --- | --- | --- |
| CC1=NN(c2cc(Cl)ccc2Cl)C(=O)C1=NNc1ccc(S(N)(=O)=O)cc1 | bovine α-glucosidase | enzyme activity, inhibitor, glucose oxidase | – | 500 µg/mL, with: maltose | – | 38.5% |
| COc1cc(Cl)c(C(=O)N[C@@H](CN[C@H]2CC[C@@H](N)CC2)Cc2ccc(C#N)cc2)cc1-c1ccc(CN[C@H](C)c2ccc(C)cc2)o1 | HRH3 (Homo sapiens, UniProt Q9Y5N1) | agonist response, antagonist | human cells | 10 µM, H3 antagonist | – | 9% |
| CC1=NN(c2cccc(C)c2)C(=O)C1=NNc1ccc(S(N)(=O)=O)cc1 | bovine α-glucosidase | enzyme activity, inhibitor, glucose oxidase | – | 50 µg/mL, with: maltose | – | 31% |
| Cc1ccc(C(=O)Nc2ccc3ccccc3c2)o1 | Kcnc1 | ion current, whole-cell patch-clamp | – | 10 µM | – | 15.2% |
| COc1ccc(C(=O)c2cc3c(-c4ccccc4)c(O)ccc3o2)cc1 | tubulin | [3H]colchicine binding, inhibitor | – | 1 µM, with: 5 µM [3H]colchicine | – | 39% |
| COc1cc(C2=CCCCc3c2ccc(OC)c3OC(C)c2ccc([N+](=O)[O-])s2)cc(OC)c1OC (stereo not shown) | tubulin | colchicine binding | – | 5 µM, with: 5.0 µM [3H]colchicine | – | 4.7 ± 2% |
| CC1=NN(c2ccccn2)C(=O)C1=NNc1ccc(S(N)(=O)=O)cc1 | bovine α-glucosidase | enzyme activity, inhibitor, glucose oxidase | – | 500 µg/mL, with: maltose | – | 61% |
| Cc1nn(-c2nc3ccc(Cl)c(Cl)c3[nH]2)c(O)c1C1OC(=O)c2ccccc21 (stereo not shown) | Cgas | enzyme activity, inhibitor, pyrophosphatase-coupled | – | 2 µM, 1.5 h, mouse enzyme | – | 99.5% |
| CC1=NN(c2ccc(C)cc2)C(=O)C1=NNc1ccc(S(N)(=O)=O)cc1 | bovine α-glucosidase | enzyme activity, inhibitor, glucose oxidase | – | 100 µg/mL, with: maltose | – | 35.1% |
| NC/C(=C\F)COc1cccc(Cn2c(=S)[nH]c(=O)c3[nH]cnc32)c1 | CACNA1C (Homo sapiens, UniProt Q13936) | peak ion current, inhibitor, automated patch clamp | – | 30 µM, pulse 10 | – | 14.1% |
| CN1CCC(CNc2ccc3ncc(-c4cccc(OC(F)(F)F)c4)n3n2)CC1 | Neuronal acetylcholine receptor; alpha4/beta2 (Homo sapiens, UniProt P17787+P43681) | ion channel activity, blocker | – | 10 µM | baseline: control | > 50% |
| O=c1c(O)cc([C@H]2Oc3cc(O)cc(O)c3C[C@H]2O)cc2c([C@H]3Oc4cc(O)cc(O)c4C[C@H]3O)cc(O)c(O)c12 | alpha-amylase | enzyme activity, inhibitor, DNS method | – | 100 µg/mL, with: soluble starch | – | 67.5% |
| O=C(NO)c1ccc(CN2CCCCc3ccccc32)c(F)c1 | HTR1D | radioligand binding, PDSP radioligand binding | – | 10 µM | – | -33.9% |
| Clc1cncc(OC[C@H]2CN(CCN3CCc4ccccc43)CCO2)c1 | HTR1D | radioligand binding | – | concentration not given, with: [3H]5-CT | – | 35.4% |
| CC[C@@H]1[C@H](F)C(=O)N[C@@H]1COc1nccc2cc(C(N)=O)c(OC)cc12 | CDK10 (Homo sapiens, UniProt Q15131) | ATP-site probe binding, ActivX profiling | THP-1 cell lysate | 0.2 mM, Lys2 site | – | -14.2% |
| COc1cccc(OC[C@H]2CN(CCN3CCc4ccccc43)CCO2)c1 | HTR1D | radioligand binding | – | concentration not given, with: [3H]5-CT | – | 25.9% |
| CC1=NN(c2ccc(Cl)cc2)C(=O)C1=NNc1ccc(S(N)(=O)=O)cc1 | bovine α-glucosidase | enzyme activity, inhibitor, glucose oxidase | – | 10 µg/mL, with: maltose | – | 25.065 ± 0.000444% |

A few entries again:
| Compound | target | assay | test system | setting | scale | inhibition |
| --- | --- | --- | --- | --- | --- | --- |
| COc1c(C#N)ccnc1N1C2CCC1CN(C(=O)c1cccnc1-n1cccn1)C2 | GABA | binding | – | 10 µM | – | -18.1% |
| O=C(C[C@@H](C(F)F)n1ccc(F)n1)N1CCC(O)(Cn2cnc3c(cnn3-c3ccc(F)cc3)c2=O)CC1 | USP7 (Homo sapiens, UniProt Q93009, V517F) | enzyme activity, inhibitor | – | 0.05 µM | – | 8.68% and 13.3% |
| Cc1nn(-c2nc3c(F)cc(F)cc3s2)c(O)c1C(c1cccc(C(F)(F)F)c1)c1c(C)nn(-c2nc3c(F)cc(F)cc3s2)c1O | Cyclic GMP-AMP synthase, catalytic domain; with DNA (CGAS, Homo sapiens, UniProt Q8N884) | cGAS phase separation, inhibitor | – | 0.781 µM | – | 21.7% |
| CC1=NOC(=O)C1=NNc1ccc(S(N)(=O)=O)cc1 | bovine α-glucosidase | enzyme activity, inhibitor, glucose oxidase | – | 10 µg/mL, with: maltose | – | 33.075 ± 0.0014% |
| COc1cc2c(cc1OC)C(=O)N(CCCCN1CCN(c3ccccc3OC)CC1)C2 | HTR1D | radioligand binding | – | concentration not given, with: [3H]5-CT | – | 87.6% |
